# Measurements from different studies.
# Numbered parts are unrelated; each lists some results of a single study. Positions count from the first letter of the parent shown.
# Sequence of UniProt Q9SKN5 (whole entry, looked up): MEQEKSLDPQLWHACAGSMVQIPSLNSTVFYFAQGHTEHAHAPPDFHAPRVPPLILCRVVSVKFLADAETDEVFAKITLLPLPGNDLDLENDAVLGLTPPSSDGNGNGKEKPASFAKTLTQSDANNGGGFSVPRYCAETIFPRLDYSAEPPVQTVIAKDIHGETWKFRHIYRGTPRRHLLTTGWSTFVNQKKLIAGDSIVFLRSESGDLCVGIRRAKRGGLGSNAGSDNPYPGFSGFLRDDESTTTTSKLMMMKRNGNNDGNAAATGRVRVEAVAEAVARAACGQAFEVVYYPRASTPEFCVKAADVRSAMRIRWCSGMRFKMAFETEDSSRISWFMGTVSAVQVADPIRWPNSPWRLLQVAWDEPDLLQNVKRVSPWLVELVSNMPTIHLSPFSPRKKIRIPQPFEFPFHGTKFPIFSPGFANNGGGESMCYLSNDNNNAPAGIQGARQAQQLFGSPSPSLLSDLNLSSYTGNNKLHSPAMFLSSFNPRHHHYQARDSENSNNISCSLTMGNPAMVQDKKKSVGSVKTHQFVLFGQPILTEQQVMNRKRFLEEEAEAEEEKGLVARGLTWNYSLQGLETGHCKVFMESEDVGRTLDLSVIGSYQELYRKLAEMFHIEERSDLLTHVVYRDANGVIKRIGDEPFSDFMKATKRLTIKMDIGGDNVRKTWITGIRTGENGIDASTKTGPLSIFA
# Sequence of UniProt O24408 (whole entry, looked up): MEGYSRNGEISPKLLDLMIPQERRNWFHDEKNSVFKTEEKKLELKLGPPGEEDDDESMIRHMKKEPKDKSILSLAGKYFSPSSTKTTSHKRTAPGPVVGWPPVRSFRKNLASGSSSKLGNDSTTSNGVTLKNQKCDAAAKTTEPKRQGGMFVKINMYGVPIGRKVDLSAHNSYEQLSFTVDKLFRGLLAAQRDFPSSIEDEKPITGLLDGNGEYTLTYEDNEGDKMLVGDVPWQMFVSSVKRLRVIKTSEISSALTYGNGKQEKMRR
# Sequence of UniProt Q8L7G0 (whole entry, looked up): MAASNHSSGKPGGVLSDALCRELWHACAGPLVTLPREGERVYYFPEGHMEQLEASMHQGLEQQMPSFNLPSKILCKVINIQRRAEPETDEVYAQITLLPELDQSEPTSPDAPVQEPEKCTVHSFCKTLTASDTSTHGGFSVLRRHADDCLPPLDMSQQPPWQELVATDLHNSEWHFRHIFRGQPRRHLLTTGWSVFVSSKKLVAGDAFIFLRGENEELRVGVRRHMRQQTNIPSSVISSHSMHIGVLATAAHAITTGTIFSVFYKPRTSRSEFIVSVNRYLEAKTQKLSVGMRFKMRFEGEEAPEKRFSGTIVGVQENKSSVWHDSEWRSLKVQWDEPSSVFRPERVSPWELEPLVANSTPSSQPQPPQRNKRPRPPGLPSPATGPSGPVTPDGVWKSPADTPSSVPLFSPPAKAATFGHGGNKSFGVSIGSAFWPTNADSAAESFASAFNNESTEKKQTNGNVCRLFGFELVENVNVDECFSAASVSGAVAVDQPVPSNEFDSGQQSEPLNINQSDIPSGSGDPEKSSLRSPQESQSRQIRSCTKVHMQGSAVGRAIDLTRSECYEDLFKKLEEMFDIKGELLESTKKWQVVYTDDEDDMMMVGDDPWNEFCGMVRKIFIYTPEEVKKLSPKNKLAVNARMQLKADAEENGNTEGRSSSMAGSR
# Sequence of UniProt Q94JM3 (whole entry, looked up): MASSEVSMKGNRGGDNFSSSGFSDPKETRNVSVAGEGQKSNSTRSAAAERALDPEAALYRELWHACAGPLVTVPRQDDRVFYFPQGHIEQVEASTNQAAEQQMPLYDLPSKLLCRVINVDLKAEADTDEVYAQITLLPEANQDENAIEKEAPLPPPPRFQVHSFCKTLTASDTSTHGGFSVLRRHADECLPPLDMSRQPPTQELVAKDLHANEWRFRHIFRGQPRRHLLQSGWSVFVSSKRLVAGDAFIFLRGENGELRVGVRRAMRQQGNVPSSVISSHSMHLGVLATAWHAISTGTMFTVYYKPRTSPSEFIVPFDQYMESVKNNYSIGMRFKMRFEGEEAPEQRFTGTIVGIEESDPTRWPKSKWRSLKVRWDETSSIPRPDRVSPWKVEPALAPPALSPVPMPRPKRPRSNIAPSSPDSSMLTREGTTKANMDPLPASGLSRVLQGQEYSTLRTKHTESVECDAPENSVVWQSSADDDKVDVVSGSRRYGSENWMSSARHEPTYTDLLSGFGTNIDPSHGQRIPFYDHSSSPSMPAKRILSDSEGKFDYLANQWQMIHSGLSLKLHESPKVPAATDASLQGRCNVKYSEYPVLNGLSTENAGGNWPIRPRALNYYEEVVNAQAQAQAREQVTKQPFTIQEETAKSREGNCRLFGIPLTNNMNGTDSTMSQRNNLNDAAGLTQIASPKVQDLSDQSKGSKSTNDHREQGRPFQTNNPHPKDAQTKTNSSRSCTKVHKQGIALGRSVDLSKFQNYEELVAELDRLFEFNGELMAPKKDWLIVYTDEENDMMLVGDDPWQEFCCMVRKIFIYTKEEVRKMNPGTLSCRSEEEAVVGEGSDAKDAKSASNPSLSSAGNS

# Sample 1
# Target: Interferon regulatory factor 5, full length, phosphomimetic (IRF5, Homo sapiens, UniProt Q13568-2, residues 1-514, S451D/S453D/S456D/S462D)
# Method: protein-binding microarray
# Form: double-stranded DNA, one strand shown
# Medium: in vitro
# Tested at: 940 nM top
# Notes: 60-bp whole probe
# With: salmon DNA 0.4 mg/ml
# Reference: random background probes
# Direction: higher = stronger binding
# All sequences stand within: GCCTAGCAC … GTCTTGATTCGCTTGACGCTGCTG
Sequence,fitted relative affinity [z-score]
CAACCAATCATTTTTGCTTAGTGCTAG,-0.154
GACGGTATGGGTATCGGGACGTGCTAG,0.912
GACGGTATCGGGACTGGGGAAGTGCTA,3.37
TAAGGTATCGGTCTCGGTTAGTGCTAG,7.57
TTAGGACTGGACACTGGGTAAGTGCTA,-0.514
GACGAACTGGGGTTCCGAGACGTGCTA,-0.226
TTATGTTTCGGTATCGGTTAGTGCTAG,9.58
CCAACTCTGTTTTCGCTTTCTGTGCTA,1.87

# Sample 2
# Target: CCND2, cyclin fold, Cln2 fusion (human)
# Method: yeast growth competition, sequencing
# Medium: yeast
# Notes: weak parent motif
# Reference: not given
# Direction: higher = stronger binding
# Starting sequence: viral docking peptide; PGASRRLFGSSAD
Substitution,normalised enrichment score
PGASRRLLGSSAD [F8L],0.0102
PAASRRLFGSSAD [G2A],0.339
PGASARLFGSSAD [R5A],-0.0148
PGASARAFGSSAD [R5A L7A],0.0997
PGASKRLLGSSAD [R5K F8L],0.107
AGASRRLFGSSAD [P1A],-0.13
PGASRRLAGSSAD [F8A],0.1
PGASRRLFGSAAD [S11A],0.418
PGASRRAFGSSAD [L7A],0.115

# Sample 3
# Molecule: B1 (IAA13)
# Method: two-hybrid
# Reference: out of 4 tests
# Direction: higher = firmer interaction
# B1: IAA13 (Arabidopsis thaliana, UniProt Q38831); chain MITELEMGKGESELELGLGLSLGGGTAAKIGKSGGGGAWGERGRLLTAKDFPSVGSKRAADSASHAGSSPPRSSSQVVGWPPIGSHRMNSLVNNQATKSAREEEEAGKKKVKDDEPKDVTKKVNGKVQVGFIKVNMDGVAIGRKVDLNAHSSYENLAQTLEDMFFRTNPGTVGLTSQFTKPLRLLDGSSEFVLTYEDKEGDWMLVGDVPWRMFINSVKRLRVMKTSEANGLAARNQEPNERQRKQPV
partner,positive tests
"IAA18 (Arabidopsis thaliana, UniProt O24408)",1
"ARF1 538-665 (Arabidopsis thaliana, UniProt Q8L7G0)",0
"ARF10 575-693 (Arabidopsis thaliana, UniProt Q9SKN5)",0
"ARF2 727-859 (Arabidopsis thaliana, UniProt Q94JM3)",0

# Other studies, line by line
Substance,partner,method,notes,measurement,result
"H2BC15 (Homo sapiens, UniProt Q99877)","H2AC14 (Homo sapiens, UniProt Q99878)",cross-linking MS,hits only,interaction screen,cross-linked

# Excerpt of the above (sample 1):
Sequence,fitted relative affinity [z-score]
CAACCAATCATTTTTGCTTAGTGCTAG,-0.154
GACGAACTGGGGTTCCGAGACGTGCTA,-0.226
